Experimental data pooled from the literature.
Every numbered part comes from another study and shows a few of its results, in no order. Substitutions count along the parent as printed.

Series 1 — technique: RNA Bind-n-Seq; form: RNA; medium: in vitro; tested at: 365 nM; relative to: no-protein control; reading: higher = stronger binding
Target: RNA binding protein fox-1 homolog 2, RRM domain, GST-SBP tag (RBFOX2, Homo sapiens, UniProt O43251-10, residues 100-194)
Setting: natural RNA segment, single round, ends assumed
Target sequence (chain): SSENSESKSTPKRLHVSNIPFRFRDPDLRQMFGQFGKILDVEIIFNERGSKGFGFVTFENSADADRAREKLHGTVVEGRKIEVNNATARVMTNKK
Strand	RBNS enrichment (R)
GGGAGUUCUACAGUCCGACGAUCCAGGGACAGAAGUACCAUCCACUUUCAAGUCCAGCUCCUUCCUAAGAGAUUCUUCCACCUUACUCUGCAGCUGCCUCUGGAAGAACUUUGGGCUGCUGGGGCUGAGCUGUUGGAAUUCUCGGGUGCCAA	0.476
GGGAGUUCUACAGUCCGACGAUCUGCAUGCAUCUGCAGGGCCUGUGAGAUCUGGUGUAAAAAGAGACAUGACAUGUGGAGAUGGGACUUAGUGUGUGAGGCAUAGGGUCAUUGGAGAUUCUUCAGACUCGGGGUGGAAUUCUCGGGUGCCAA	9.06
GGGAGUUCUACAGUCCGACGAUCCAAAUAACUAAGUUUGGAGGUAUUUUCACUCUAUAUGAAUAAAUAUUUUUCCAUAAAAUAGUUGUGAUUAUAUUUUUGUUUUAUAUAGGUCCCAAAUUAUAAUUGUCAAAUGGAAUUCUCGGGUGCCAA	0.773
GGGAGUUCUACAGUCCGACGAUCUGCUCCGGUUUUUUCAUACGACUUAGUAUGGGGCAAAAAAGCAAUGUGAAGAAUCAACUCUAGGGUUACCUGUGAAGCCACGCGGUGGUGUUCGAAGCUGUCUGGUAAUGUGGAAUUCUCGGGUGCCAA	0.31
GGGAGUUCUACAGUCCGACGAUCGGUUUUUAACCCAAACUCAGUGCAUUUUUUAAAAUAGUUAAGAAUCCAAGUCGAGAACACUUGAACACACAGAAGGGAGACCCCGCCUAGCAUAGAUUUGCAGUUACGGCUGGAAUUCUCGGGUGCCAA	68.3
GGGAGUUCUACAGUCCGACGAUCCAGAAAUACAAGAAAAAUAGACUAUGUCAGGUCCUCAAGUUAUGAGUUAGGACCAACGACUAUUAACUUGCAUUCACAUUAUCCUCACAGAACCAAGAGUGGCAAUGCUUUGGAAUUCUCGGGUGCCAA	0.804
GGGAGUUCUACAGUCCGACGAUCAUGCCAUGGUUUUGUUUUGGUUACAUUGAAAGAAAGUUAAUUUGGAAAAUUUGGGAGAAAUCUAAUCAUGCCUAUUAAGGAUGUAAGACAUUACAGCCUUAGAAGAAAGAUGGAAUUCUCGGGUGCCAA	1.01

Series 2 — technique: universal PBM; form: double-stranded DNA, one strand shown; medium: in vitro; tested at: 600 nM; reading: higher = stronger binding
Target: Sal-like protein 4, full length isoform A (SALL4, Homo sapiens, UniProt Q9UJQ4, residues 1-1053)
UniProt Q9UJQ4, sequence (whole entry, looked up): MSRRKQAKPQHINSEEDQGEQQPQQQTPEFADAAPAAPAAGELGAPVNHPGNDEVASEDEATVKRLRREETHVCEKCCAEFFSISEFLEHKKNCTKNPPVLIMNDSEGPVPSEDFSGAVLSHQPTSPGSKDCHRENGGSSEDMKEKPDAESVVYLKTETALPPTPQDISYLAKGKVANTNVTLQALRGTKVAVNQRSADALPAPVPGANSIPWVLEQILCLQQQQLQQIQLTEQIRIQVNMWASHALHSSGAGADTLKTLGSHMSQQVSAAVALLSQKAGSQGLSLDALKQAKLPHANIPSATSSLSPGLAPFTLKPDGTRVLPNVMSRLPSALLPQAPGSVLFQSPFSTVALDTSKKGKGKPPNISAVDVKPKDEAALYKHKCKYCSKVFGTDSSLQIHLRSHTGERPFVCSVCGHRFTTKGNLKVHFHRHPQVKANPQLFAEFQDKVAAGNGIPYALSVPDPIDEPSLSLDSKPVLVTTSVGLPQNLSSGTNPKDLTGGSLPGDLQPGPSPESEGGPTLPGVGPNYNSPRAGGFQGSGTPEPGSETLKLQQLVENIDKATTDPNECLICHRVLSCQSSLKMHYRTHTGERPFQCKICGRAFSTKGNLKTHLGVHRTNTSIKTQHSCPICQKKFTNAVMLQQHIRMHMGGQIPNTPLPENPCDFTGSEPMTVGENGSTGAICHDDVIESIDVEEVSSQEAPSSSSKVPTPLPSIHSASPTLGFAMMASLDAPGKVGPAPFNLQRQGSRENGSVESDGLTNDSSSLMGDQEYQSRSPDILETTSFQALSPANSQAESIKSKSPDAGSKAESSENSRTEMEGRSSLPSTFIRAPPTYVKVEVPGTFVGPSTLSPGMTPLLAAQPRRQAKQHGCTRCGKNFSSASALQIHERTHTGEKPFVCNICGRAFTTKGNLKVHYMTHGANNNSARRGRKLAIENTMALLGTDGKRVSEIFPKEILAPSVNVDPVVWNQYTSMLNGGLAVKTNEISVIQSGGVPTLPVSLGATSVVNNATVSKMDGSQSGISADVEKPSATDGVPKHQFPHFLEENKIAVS
Setting: 8-mer, flanks averaged, mean of replicates
Strand	E-score
GCACCCAA	-0.279
TGGAGCAA	0.0757
AAATTGTC	0.166
AATCACAC	0.129
CGTATGCC	-0.16
CTCCCCAG	-0.201
CCATTAGA	-0.0891
GAGCACTC	-0.175
AGCCAGTA	-0.193
GCATCCGC	-0.129
TAATGAGA	0.249
AAGTGCTC	-0.177
CCGATAGC	-0.191
ACCTACCC	-0.27
GAGTATCA	0.00899
GCTTCCAC	-0.184

Series 3 — target: CCNB3, cyclin fold, Cln2 fusion (human); technique: yeast growth competition, sequencing; medium: yeast; setting: weak parent motif; relative to: not given; reading: higher = stronger binding
Starting sequence: PKMYT1 docking peptide (human); SFEPRNLLSLFED
Change	normalised enrichment score
SFEPRNLLSFFED [L10F]	0.431
SFEPRHLLSLFED [N6H]	0.482
SFEPRNLLSLFDD [E12D]	0.672
SFEPRNLLSLFYD [E12Y]	0.607
SFEPRNLLSLFEH [D13H]	-0.0323
SLEPRNLLSLFED [F2L]	0.744
SFEPRNLLSLQED [F11Q]	0.482
SFEPRCLLSLFED [N6C]	0.724
SFEPRNLPSLFED [L8P]	-0.139

Series 4 — technique: RNA Bind-n-Seq; form: RNA; medium: in vitro; tested at: 1 µM; setting: whole 134-nt RNA, ends assumed; added: 150 mM KCl; relative to: input library; reading: higher = stronger binding
Target: Ras GTPase-activating protein-binding protein 1, C-terminal RGG region (G3BP1, Homo sapiens, UniProt Q13283)
UniProt Q13283, sequence (whole entry, looked up): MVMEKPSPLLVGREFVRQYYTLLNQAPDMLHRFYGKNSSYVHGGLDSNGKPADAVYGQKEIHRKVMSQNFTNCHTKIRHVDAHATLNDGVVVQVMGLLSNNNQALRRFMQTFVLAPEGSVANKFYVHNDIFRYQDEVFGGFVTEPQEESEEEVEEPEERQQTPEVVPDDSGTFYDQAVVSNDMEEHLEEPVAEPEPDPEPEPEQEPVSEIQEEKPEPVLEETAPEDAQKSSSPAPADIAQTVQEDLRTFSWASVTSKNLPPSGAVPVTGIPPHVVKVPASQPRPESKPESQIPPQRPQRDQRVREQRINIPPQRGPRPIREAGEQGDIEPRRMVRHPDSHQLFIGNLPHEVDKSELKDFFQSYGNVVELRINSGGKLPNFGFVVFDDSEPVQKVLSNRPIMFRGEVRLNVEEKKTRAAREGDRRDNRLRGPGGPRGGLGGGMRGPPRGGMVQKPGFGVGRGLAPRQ
Strand	log2 enrichment
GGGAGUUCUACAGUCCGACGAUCCAAGUCCUGUGCUACACAUCGUAUGUACCGAAUCGGGGUUUGGGGUUUGGGUUUGGAAAGUAUUAUGUUACGCCGUUCGGAUCUGCACUUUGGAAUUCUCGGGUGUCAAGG	-0.977
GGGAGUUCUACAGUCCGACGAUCAAGUCCUGUGCUACACAUCGUAUGUACCGAAUCGGGUUUGGGUUUGGGUUUUUGGGAAAGUAUUAUGUUACGCCGUUCGGAUCUGCACUUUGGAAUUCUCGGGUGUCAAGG	1.62
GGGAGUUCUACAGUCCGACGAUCCCUGUGCUACACAUCGUAUGUACCGAAUCGGGGUUUUUUGGGUUUUUUGGGGUUUUUUGGGAAAGUAUUAUGUUACGCCGUUCGGAUCUGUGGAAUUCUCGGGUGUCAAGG	-1.04
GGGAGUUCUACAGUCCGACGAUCAAGUCCUGUGCUACACAUCGUAUGUACCGAAUCGGGGAAAGGGGUGGGGAAAGGGGAAAGUAUUAUGUUACGCCGUUCGGAUCUGCACUUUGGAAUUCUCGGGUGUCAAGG	2.29
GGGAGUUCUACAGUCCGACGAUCCUCAAGUCCUGUGCUACACAUCGUAUGUACCGAAUCGGAAGGGAAGGGAAGGGAAAGUAUUAUGUUACGCCGUUCGGAUCUGCACUUCCAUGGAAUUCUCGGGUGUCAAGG	0.246
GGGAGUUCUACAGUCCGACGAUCACCAUGCAAAUGGGCAUCUUUGGGAAGUGGGGCAAGGGGGGGAUAGGGAGGGGGGUAACACUUUGGGAACAGGUGGUCCCAGGUCGUUUCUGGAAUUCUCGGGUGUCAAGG	-1.12
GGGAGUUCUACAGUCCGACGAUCUCCUGUGCUACACAUCGUAUGUACCGAAUCGGGUUUGGGUUUUUUUGGGUUUUUUUGGGAAAGUAUUAUGUUACGCCGUUCGGAUCUGCAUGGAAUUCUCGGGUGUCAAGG	0.0179
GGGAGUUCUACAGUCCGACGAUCAAGUCCUGUGCUACACAUCGUAUGUACCGAAUCGGGUUUUUGGUUUUUGGUUUUUGGAAAGUAUUAUGUUACGCCGUUCGGAUCUGCACUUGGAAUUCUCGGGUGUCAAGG	-1.53
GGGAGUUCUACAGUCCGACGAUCUCAAGUCCUGUGCUACACAUCGUAUGUACCGAAUCGGGUGGGUUUGGGUUUGGGAAAGUAUUAUGUUACGCCGUUCGGAUCUGCACUUCCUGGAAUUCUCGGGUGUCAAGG	1.73

Series 5 — technique: protein binding microarray; form: double-stranded DNA, one strand shown; medium: in vitro; tested at: not given; relative to: not given; reading: higher = stronger binding
Target: Histone acetyltransferase KAT6A, winged helix 1, GST fusion (KAT6A, Homo sapiens, UniProt Q92794, residues 1-85)
Setting: 8-mer, flanks averaged, mean of 2 arrays, mostly near background
Target sequence (chain): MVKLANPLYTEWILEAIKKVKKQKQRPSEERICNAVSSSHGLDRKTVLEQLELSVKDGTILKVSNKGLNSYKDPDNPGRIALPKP
Strand	E-score
ACAATAAC	-0.0939
AGTGATCC	-0.0221
AACAGAGG	-0.17
ATTTCGGC	0.154
CTTATCGA	0.00697
CGTAAGAC	0.0993
CGGCAGAC	0.248
GCAAGCGC	0.35
AAGATATT	-0.23
ATCGAACA	-0.0988
AGCGATCA	0.0582
CCACGTCG	0.0686
CTTCAACA	-0.142
CCCCTCGC	0.0439

Series 6 — technique: protein-binding microarray; form: double-stranded DNA, one strand shown; medium: in vitro; tested at: 2540 nM top; setting: 60-bp whole probe; added: salmon DNA 0.4 mg/ml; relative to: random background probes; reading: higher = stronger binding; constant ends, left off below: GCCTAGCAC … GTCTTGATTCGCTTGACGCTGCTG
Target: Interferon regulatory factor 3, full length, phosphomimetic (IRF3, Homo sapiens, UniProt Q14653, residues 1-427, S386D/S396D/S398D/S402D/T404D/S405D)
UniProt Q14653, sequence (whole entry, unmodified, looked up): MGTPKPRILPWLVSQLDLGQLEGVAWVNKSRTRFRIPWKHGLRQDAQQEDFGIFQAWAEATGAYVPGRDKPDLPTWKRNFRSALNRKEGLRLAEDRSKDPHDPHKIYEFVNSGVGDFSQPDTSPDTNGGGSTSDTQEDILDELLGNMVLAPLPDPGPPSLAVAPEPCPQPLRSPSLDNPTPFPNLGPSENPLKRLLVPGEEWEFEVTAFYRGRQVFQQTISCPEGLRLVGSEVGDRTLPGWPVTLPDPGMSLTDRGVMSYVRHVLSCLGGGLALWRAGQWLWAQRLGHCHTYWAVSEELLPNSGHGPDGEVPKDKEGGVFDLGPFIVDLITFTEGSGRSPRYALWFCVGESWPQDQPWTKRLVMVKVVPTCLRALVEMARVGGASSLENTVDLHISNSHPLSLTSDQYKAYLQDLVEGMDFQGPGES
Strand	fitted relative affinity [z-score]
TAAGGACTGGGGACTGGGTTAGTGCTA	-1.34
GACGATTGCAGTTTCGAGACGTGCTAG	2.76
TTAGGTTTCGGGTATCGGTTTGTGCTA	5.03
TCATCTATTGCTTTCTCACTGTGCTAG	0.939
GACGGTATCGGACGGGGGACGTGCTAG	0.67
TTAGGTTTCCTACTGCTTAAGTGCTAG	4.86
GACGAACTGATTATCGAGACGTGCTAG	0.29
TTAGAACTGACTATCGATTAGTGCTAG	-0.187
TCATGGTTCCCATTCCAACTGTGCTAG	3.34
TTAGATATCAGTATGGATTAGTGCTAG	0.313
TTAGATCTCCTTATCCTTTAGTGCTAG	2.02
TTAGGTTTCGGGACTAGGTTAGTGCTA	4.19
CCTTGTGTTACTTTCTACTTGTGCTAG	1.95
TCAAGCCTCAGTCCTCACACTGTGCTA	-0.661
TCAGATATCTTTTTCCTACTGTGCTAG	1.79
ACTCCTGTACATCTATGTAGGTGCTAG	0.423
GGAGGCCTCTTCATTCATTAAGTGCTA	-0.603
TTAGGTTTCCTTTCGCTTTAGTGCTAG	9.06
GACGGTTTCCGTATCCTGACGTGCTAG	6.17
GTGTTTTCACTTTTCCTACAGTGCTAG	4.37

Series 7 — technique: DHFR PCA, dose-response; medium: yeast; setting: Hill fit, mean, not affinity; added: (+)-ABA, dose series; reading: lower = more sensitive
Target: ABI1, truncated, D143A, DHFR fusion (Arabidopsis thaliana, UniProt P49597)
Starting sequence: PYL1, truncated, DHFR fusion (Arabidopsis thaliana, UniProt Q8VZS8); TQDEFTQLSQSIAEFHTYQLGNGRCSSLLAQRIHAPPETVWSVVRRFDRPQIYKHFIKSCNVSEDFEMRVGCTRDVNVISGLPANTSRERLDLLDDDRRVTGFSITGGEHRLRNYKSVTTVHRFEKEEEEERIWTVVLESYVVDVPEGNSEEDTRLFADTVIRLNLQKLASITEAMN
Change	ABA EC50 [µM]
N77Y	2.65
N114C	181
V100Q	87.1
L8E	61.3
V118M	6.98
T39S	4.57
M176K	3.11
I57V	2.2
E129R	3.58
P37C	9.82
D159K	195
V145R	59.7
E4N	5.48
